Results collected from several papers.
Every numbered part comes from another study and shows a few of its results, in no order.
Chain of UniProt Q13131 (whole entry, looked up): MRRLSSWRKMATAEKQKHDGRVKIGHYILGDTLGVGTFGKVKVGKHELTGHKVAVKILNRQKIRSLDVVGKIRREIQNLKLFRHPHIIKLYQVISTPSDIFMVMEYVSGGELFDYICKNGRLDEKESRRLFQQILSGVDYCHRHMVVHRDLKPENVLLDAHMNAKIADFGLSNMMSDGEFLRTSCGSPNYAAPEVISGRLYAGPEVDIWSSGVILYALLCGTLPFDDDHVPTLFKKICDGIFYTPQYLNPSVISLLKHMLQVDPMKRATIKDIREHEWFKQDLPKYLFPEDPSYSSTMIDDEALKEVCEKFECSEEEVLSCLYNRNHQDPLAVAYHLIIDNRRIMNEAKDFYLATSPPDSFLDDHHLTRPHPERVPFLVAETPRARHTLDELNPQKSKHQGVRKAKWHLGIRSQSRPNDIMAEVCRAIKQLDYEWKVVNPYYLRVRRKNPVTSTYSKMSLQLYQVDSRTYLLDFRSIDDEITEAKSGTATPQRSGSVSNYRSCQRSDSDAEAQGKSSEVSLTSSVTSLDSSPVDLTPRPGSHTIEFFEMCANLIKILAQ
Chain of UniProt Q61527 (whole entry, looked up): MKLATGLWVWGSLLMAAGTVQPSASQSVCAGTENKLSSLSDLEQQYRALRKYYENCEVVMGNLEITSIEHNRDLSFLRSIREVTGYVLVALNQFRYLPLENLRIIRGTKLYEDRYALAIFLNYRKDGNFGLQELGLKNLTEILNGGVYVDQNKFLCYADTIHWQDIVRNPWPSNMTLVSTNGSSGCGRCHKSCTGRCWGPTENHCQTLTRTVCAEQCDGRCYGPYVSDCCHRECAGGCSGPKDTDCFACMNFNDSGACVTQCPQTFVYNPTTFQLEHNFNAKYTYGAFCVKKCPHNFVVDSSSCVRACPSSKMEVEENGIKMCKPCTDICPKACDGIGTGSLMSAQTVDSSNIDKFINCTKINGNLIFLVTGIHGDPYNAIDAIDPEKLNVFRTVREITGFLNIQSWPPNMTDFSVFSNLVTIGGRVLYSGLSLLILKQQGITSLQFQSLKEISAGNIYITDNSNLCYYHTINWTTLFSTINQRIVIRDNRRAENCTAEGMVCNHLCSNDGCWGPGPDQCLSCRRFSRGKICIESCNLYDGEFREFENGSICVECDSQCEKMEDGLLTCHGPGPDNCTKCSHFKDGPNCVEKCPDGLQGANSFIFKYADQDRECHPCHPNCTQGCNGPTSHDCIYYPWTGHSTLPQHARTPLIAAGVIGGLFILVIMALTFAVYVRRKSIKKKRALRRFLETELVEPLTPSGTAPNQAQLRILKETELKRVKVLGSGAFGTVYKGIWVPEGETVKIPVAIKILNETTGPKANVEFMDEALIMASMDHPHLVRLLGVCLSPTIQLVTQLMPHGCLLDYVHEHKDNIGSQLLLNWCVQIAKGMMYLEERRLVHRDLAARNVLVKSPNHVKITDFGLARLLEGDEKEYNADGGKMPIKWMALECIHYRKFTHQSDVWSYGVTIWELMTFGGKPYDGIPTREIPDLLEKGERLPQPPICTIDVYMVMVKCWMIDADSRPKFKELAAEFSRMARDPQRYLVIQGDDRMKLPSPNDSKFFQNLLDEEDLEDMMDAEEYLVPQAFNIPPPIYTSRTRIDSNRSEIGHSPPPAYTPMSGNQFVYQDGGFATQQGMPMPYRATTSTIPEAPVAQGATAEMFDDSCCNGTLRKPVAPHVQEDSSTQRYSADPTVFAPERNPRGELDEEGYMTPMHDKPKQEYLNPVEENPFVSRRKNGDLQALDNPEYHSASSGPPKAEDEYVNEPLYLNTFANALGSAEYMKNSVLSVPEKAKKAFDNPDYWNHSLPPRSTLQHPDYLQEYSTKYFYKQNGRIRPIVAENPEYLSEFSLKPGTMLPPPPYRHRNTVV
Chain of UniProt P10721 (whole entry, unmodified, looked up): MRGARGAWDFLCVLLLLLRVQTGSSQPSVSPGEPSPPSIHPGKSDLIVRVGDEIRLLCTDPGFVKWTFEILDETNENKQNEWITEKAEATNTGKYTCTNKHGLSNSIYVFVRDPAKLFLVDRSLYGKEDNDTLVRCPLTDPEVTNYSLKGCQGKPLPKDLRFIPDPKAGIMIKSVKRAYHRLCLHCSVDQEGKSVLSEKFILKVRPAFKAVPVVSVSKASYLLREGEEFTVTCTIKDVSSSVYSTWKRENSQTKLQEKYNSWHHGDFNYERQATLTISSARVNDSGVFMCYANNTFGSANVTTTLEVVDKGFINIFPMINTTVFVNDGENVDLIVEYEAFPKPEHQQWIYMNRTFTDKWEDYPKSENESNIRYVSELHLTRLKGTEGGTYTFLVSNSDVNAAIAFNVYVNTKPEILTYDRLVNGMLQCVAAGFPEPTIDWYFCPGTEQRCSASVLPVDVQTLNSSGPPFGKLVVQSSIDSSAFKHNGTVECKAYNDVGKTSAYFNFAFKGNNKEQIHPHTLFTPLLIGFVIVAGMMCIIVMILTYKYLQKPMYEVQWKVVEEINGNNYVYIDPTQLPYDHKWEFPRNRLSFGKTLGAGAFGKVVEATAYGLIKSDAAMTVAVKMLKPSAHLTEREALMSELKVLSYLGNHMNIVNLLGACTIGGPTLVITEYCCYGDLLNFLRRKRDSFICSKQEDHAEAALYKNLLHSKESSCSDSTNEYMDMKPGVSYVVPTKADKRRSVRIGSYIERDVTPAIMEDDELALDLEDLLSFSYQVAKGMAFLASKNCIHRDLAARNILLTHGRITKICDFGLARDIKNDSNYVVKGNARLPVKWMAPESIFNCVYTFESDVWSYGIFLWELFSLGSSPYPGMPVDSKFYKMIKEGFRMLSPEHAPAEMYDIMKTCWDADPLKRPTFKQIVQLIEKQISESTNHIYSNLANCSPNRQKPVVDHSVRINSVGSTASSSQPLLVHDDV
Chain of UniProt Q8TBX8 (whole entry, looked up): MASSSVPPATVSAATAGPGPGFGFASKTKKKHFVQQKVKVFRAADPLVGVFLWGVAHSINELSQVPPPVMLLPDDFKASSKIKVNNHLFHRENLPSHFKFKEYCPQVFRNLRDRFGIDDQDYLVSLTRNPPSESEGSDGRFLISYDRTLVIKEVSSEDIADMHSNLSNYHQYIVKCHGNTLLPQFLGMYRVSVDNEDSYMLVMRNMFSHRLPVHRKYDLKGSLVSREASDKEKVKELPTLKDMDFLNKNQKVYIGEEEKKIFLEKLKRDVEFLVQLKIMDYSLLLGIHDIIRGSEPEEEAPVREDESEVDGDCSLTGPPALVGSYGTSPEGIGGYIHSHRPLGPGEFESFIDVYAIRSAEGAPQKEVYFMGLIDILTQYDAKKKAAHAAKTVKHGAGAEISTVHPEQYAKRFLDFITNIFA

Sample 1
Target: Ribosomal protein S6 kinase alpha-3 (RPS6KA3, Homo sapiens, UniProt P51812)
Chain of UniProt P51812 (whole entry, looked up): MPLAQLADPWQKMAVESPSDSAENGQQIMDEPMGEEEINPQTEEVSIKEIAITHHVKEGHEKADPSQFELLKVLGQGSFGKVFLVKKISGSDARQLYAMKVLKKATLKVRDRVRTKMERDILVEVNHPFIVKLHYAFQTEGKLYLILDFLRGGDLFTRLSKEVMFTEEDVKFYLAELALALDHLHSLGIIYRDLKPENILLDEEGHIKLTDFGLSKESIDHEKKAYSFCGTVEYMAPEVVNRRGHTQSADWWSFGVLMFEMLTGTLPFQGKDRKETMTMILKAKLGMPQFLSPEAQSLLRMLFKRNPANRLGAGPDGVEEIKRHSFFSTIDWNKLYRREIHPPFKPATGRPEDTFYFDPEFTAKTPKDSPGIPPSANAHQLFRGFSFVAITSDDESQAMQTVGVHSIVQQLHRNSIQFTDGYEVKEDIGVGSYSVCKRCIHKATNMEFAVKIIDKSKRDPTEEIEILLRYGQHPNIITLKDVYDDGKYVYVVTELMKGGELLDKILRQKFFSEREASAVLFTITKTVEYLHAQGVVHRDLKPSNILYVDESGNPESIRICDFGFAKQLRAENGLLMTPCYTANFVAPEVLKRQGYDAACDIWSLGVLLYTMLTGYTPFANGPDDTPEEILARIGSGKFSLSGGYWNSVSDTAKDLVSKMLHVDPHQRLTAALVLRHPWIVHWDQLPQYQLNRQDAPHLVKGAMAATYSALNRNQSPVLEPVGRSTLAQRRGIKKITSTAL
Read-out: enzyme activity
Mode: inhibitor
Tested at: 0.5 µM
Baseline: control
SMILES | remaining activity [%]
CNC(=O)c1cc(Oc2ccc(NC(=O)Nc3ccc(Cl)c(C(F)(F)F)c3)cc2)ccn1 | 100
O=C1NC(=O)C(c2cn(CCCn3ccnc3)c3ccccc23)=C1Nc1ccccc1 | 3.85
CN(C)c1ccc(C=C2C(=O)Nc3ccccc32)cc1 | 92.6
Nc1ccc2ncnc(NCCc3ccc(Oc4ccccc4)cc3)c2c1 | 101
COc1ccc(C(=O)Nc2sc3c(c2C(N)=O)CCCC3)cc1OC | 93
CCOC(=O)c1c(C)[nH]c(/C=C2\C(=O)Nc3ccccc32)c1C | 86.4
Cc1ccc(NC(=O)c2ccc(CN3CCN(C)CC3)cc2)cc1Nc1nc(-c2cccnc2)cs1 | 93.6
C#Cc1cccc(Nc2ncnc3cc(OCCOC)c(OCCOC)cc23)c1 | 100
Cc1cccc(-c2[nH]c(C(C)(C)C)nc2-c2ccc3c(c2)OCO3)n1 | 82.4
CO[C@H]1C[C@@H]2CC[C@@H](C)[C@@](O)(O2)C(=O)C(=O)N2CCCC[C@H]2C(=O)O[C@H]([C@H](C)C[C@@H]2CC[C@@H](O)[C@H](OC)C2)CC(=O)[C@H](C)/C=C(\C)[C@@H](O)[C@@H](OC)C(=O)[C@H](C)C[C@H](C)/C=C/C=C/C=C/1C | 105
O=C(CCCc1ccc(-c2ccccc2F)cc1)Nc1ccc(O)cc1 | 95.8
O=C(O)c1ccc2c3c1cccc3c(=O)n1c3ccccc3nc21 | 95.5
Oc1ccc(-c2nc(-c3ccncc3)c(-c3ccc(F)cc3)[nH]2)cc1 | 96.1
Cn1sc(=O)n(Cc2ccccc2)c1=O | 97.5
O=C1NC(=O)C(c2cn(CCCO)c3ncccc23)=C1c1cnccn1 | 91.3

Sample 2
Compound: COc1ccc2cc(OCC3(C(=O)O)CN(C(=O)c4ccc(F)cc4)C3)ccc2c1
Read-out: cell-free assay
Method: competition with immobilised ligand
Tested at: 1 µM
target | remaining binding [%]
Mast/stem cell growth factor receptor Kit (KIT, Homo sapiens, UniProt P10721, V559D) | 100
Protein kinase C theta type (PRKCQ, Homo sapiens, UniProt Q04759) | 100
5'-AMP-activated protein kinase catalytic subunit alpha-1 (PRKAA1, Homo sapiens, UniProt Q13131) | 100
Mitogen-activated protein kinase kinase kinase 20 (MAP3K20, Homo sapiens, UniProt Q9NYL2) | 100
Phosphatidylinositol 5-phosphate 4-kinase type-2 gamma (PIP4K2C, Homo sapiens, UniProt Q8TBX8) | 100

Sample 3
SMILES: COc1cc(C(=O)N2CCC(N3CCN(C)CC3)CC2)ccc1Nc1ncc2c(n1)N(C)c1ccccc1C(=O)N2C
tested on | assay | system | conditions | inhibition
human PBMC | probe labeling, inhibitor, KiNativ profiling | cell lysate | concentration not given, LYS1 site, together with: ATP acyl-phosphate probe 1 µM | 18.2%
NEK1 (mouse) | probe labelling, KiNativ, measured: DIkSQNIFLTK peptide, LYS2 site | brain tissue lysate (mouse) | 0.1 µM, together with: ATP acyl-phosphate probe | -12.4%
mouse PCTAIRE2 and PCTAIRE3 | probe labelling, KiNativ ATP probe | mouse brain lysate | 1 µM, LYS1 site | 0.5%
RSK2 domain 1 (mouse) | probe labelling, inhibitor, KiNativ ActivX ATP probe | mouse brain lysate | 1 µM, activation loop peptide | -8.9%
Receptor tyrosine-protein kinase erbB-4 (Erbb4, Mus musculus, UniProt Q61527) | KiNativ profiling | mouse brain lysate | 0.1 µM, LYS1 site, together with: ADP acyl phosphate probe | -2.1%

Sample 4
Organism: Sarcocystis neurona
Read-out: parasite growth
Tested at: 10 µM
Time: 96 h
Notes: first screen
Baseline: untreated
Compound | log2 fold change
O=c1[nH]cnc2c1ncn2[C@H]1CC[C@@H](CO)O1 | -0.09
Cc1cccc(Nc2ccncc2S(=O)(=O)NC(=O)NC(C)C)c1 | 0.23
CN1CCN(C2=Nc3ccccc3Oc3ccc(Cl)cc32)CC1 | -0.02
C=CC1=C(C(=O)O)N2C(=O)[C@@H](NC(=O)/C(=N\OCC(=O)O)c3csc(N)n3)[C@H]2SC1 | 0.2

Sample 5
Target: Beta-1 adrenergic receptor (ADRB1, Homo sapiens, UniProt P08588)
Chain of UniProt P08588 (whole entry, looked up): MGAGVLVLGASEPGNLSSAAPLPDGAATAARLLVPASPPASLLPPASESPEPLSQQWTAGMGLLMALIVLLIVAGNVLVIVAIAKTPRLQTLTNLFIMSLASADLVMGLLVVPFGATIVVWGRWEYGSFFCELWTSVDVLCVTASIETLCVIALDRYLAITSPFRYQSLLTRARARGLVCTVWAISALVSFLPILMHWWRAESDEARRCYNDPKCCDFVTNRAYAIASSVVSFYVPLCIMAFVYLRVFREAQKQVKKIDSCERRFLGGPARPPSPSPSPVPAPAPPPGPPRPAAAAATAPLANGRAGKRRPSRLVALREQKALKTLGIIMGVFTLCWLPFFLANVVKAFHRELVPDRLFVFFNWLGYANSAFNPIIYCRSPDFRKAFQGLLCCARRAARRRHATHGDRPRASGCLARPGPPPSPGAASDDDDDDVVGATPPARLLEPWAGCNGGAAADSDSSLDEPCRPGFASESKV
Mode: antagonist
Structure (SMILES) | IC50 [µM]
Cc1cc(-c2nc3ccccc3s2)nc2ccccc12 | ≥ 100
O=C(NCC(O)CO)c1ccc(OC2CCN(CCc3ccccc3)CC2)cc1 (stereo not drawn) | ≥ 100
c1ccc2c(Oc3nc(Nc4ccc(N5CCOCC5)cc4)c4ncn(C5CCCCC5)c4n3)cccc2c1 | ≥ 100
COC(=O)CCC(=O)N[C@@H](C)C(=O)N[C@@H](C)C(=O)N1CCC[C@H]1C(=O)N[C@H](C(=O)Nc1ccc2c(C)cc(=O)oc2c1)C(C)C | ≥ 100
Cc1nn(Cc2ccc(F)cc2)c2sc(C(=O)N(C)Cc3cnn(C)c3)cc12 | ≥ 100
CC(=O)Oc1ccc2c(c1)Oc1cc(OC(C)=O)ccc1C21OC(=O)c2ccccc21 | ≥ 100
Cc1ccc2c(C(=O)N3CCCC3C)cc(-c3cnn(C)c3)nc2c1 (stereo not drawn) | ≥ 100

Excerpt of the above (sample 3):
tested on | assay | system | conditions | inhibition
mouse PCTAIRE2 and PCTAIRE3 | probe labelling, KiNativ ATP probe | mouse brain lysate | 1 µM, LYS1 site | 0.5%
NEK1 (mouse) | probe labelling, KiNativ, measured: DIkSQNIFLTK peptide, LYS2 site | brain tissue lysate (mouse) | 0.1 µM, together with: ATP acyl-phosphate probe | -12.4%
RSK2 domain 1 (mouse) | probe labelling, inhibitor, KiNativ ActivX ATP probe | mouse brain lysate | 1 µM, activation loop peptide | -8.9%
human PBMC | probe labeling, inhibitor, KiNativ profiling | cell lysate | concentration not given, LYS1 site, together with: ATP acyl-phosphate probe 1 µM | 18.2%
Receptor tyrosine-protein kinase erbB-4 (Erbb4, Mus musculus, UniProt Q61527) | KiNativ profiling | mouse brain lysate | 0.1 µM, LYS1 site, together with: ADP acyl phosphate probe | -2.1%
